{"data": "Experimental data collected from several papers", "B1": "panD Y126A (Mycobacterium abscessus, UniProt B1MGV7); chain MMFRTMMKSKIHRATVTHADLHYVGSVTIDPDLMEAADLLEGEQVTIVDIDNGARLETYAITGTRGSGVIGINGAAAHLVHPGDLVIIIAYGVMTDEEARAFTPRVVFVDSDNKQVELGEHSDDPAAVPENFGLVSPRGLV", "B2": "protein 1-735 A444P (UniProt C7Z7K1); chain MSNLKDFSQPGSGQESNFGVDFVIHYKVPAAERDEAEAGFVQLIRALTTVGLATEVRHGENESLLVFVKVASPDLFAKQVYRARLGDWLHGVRVSAPHNDIAQALQDEPVVEAERLRLIYLMITKPHNEGGAGVTPTNAKWKHVESIFPLHSHSFNKEWIKKWSSKYTLEQTDIDNIRDKFGESVAFYFAFLRSYFRFLVIPSAFGFGAWLLLGQFSYLYALLCGLWSVVFFEYWKKQEVDLAVQWGVRGVSSIQQSRPEFEWEHEAEDPITGEPVKVYPPMKRVKTQLLQIPFALACVVALGALIVTCNSLEVFINEVYSGPGKQYLGFLPTIFLVIGTPTISGVLMGAAEKLNAMENYATVDAHDAALIQKQFVLNFMTSYMALFFTAFVYIPFGHILHPFLNFWRATAQTLTFSEKELPTREFQINPARISNQMFYFTVTPQIVNFATEVVVPYIKQQAFQKAKQLKSGSKVQEDHEEEAEFLQRVREECTLEEYDVSGDYREMVMQFGYVAMFSVAWPLAACCFLVNNWVELRSDALKIAISSRRPIPWRTDSIGPWLTALSFLSWLGSITSSAIVYLCSNSKNGTQGEASPLKAWGLLLSILFAEHFYLVVQLAVRFVLSKLDSPGLQKERKERFQTKKRLLQENLGQDAAEEAAAPGIEHSEKITREALEEEARQASIRGHGTPEEMFWQRQRGMQETIEIGRRMIEQQLAAGKNGKKSAPAVPSEKAS", "B3": "ilvA 1-422 (Staphylococcus aureus, UniProt Q2FF63); sequence looked up; chain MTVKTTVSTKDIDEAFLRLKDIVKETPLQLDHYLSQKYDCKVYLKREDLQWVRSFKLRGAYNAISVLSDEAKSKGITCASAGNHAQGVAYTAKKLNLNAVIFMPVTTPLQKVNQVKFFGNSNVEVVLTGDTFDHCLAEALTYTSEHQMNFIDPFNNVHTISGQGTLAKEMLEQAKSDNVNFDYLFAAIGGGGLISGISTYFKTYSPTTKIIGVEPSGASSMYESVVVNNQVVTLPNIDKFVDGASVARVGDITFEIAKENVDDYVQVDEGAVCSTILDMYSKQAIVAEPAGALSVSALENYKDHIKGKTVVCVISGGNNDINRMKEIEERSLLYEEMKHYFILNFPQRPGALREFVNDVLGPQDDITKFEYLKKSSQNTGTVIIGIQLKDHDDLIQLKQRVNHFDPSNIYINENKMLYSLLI", "B4": "sduA (Bacillus cereus, UniProt B7HFR2); chain MSDKINVWTTSRDSAVCGDIELKKTSTTRLIFRPEIVNNNKNPKASVRGCFIFQKKGRNALWDDYKELDMNKLKAEEWIKLEINSDAMLTLTKEIQKHYAVHEKYGVRYGAFHLFKDNPDIEKLIEMFESNTDLLTQLMEDDKSEALEKTLEWIVTNDNPDKIIDRLKNLKEQDLDQLNTLIGIANLKKVLSVWESNKLTNTSEKFWQSVLKENTWILSQIFSNPTVLINDEAYVGGKTVKNDSGKLVDFLYANPFSKDAVLIEIKTPSTPLITPTEYRTGVYSAHKDLTGAVTQVLTYKTTLQREYQNIDYNNYRQGIKTDFDIITPCCVVIAGMFDTLTDTAHRHSFELYRKELKNVTVITFDELFERVKGLIKLLEG", "B5": "SthK; chain MAKDIGINSDPNSSSVDKLMKSSGVSNPTYTLVWKVWILAVTLYYAIRIPLTLVFPSLFSPLLPLDILASLALIADIPLDLAFESRRTSGRKPTLLAPSRLPDLLAALPLDLLVFALHLPSPLSLLSLVRLLKLISVQRSATRILSYRINPALLRLLSLVGFILLAAHGIACGWMSLQPPSENPAGTRYLSAFYWTITTLTTIGYGDITPSTPTQTVYTIVIELLGAAMYGLVIGNIASLVSKLDAAKLLHRERVERVTAFLSYKRISPELQRRIIEYFDYLWETRRGYEEREVLKELPHPLRLAVAMEIHGDVIEKVPLFKGAGEEFIRDIILHLEPVIYGPGEYIIRAGEMGSDVYFINRGSVEVLSADEKTRYAILSEGQFFGEMALILRAPRTATVRARAFCDLYRLDKETFDRILSRYPEIAAQIQELAVRRKELESSGLVPRGSVKHHHH", "B6": "YukB 1-973 (Bacillus subtilis, UniProt C0SPA7); sequence looked up; chain MSLLWVFYQNNVQKLNLSNLPSSHPVTIGPDVKDSVTISTIPFNSGVISLKRKESGGQYEVFLGNDCLGTIETDISFTLQTDQQDIRLILTGSEPEKSVYFTGNRDEIVCSSEKTNADIYLNPQDFAFAEQSTFSLLRAGGSWSVRPESGTIFLNGEKINANTPLKPGDEIFWNFTQMRVTEQDLLEIVHYAQFETALTETVKPSTEMQKKYPQYRRTPRMVYDLPDDRVSFSFPSQESDQTNRGLWLVILPPLVMLIVMGVVAIIQPRGIFILVSLAMFMMTLITSTVQYFRDKNQRKKREEKRERVYKLYLDNKRKELQALAEKQKQVLEFHFPSFEQMKYLTSEISDRIWEKSLESKDYLQLRLGTGTVPSSYEINMSGGDLANRDIDDLMEKSQHMQRVYKDIRNAPVTVDLAEGPMGLVGKSQIVKNEIHQLIGQLSFFNSYHDLRFVFIFHEEEYKDWEWMKWLPQFQMPHIYAKGFIYNEQTRDQLLSSLYELIRERDLEDDKEKLQFKPHFVFVITNQQLISEHVILEYLEGQHEHLGISTIVAAETKESLSENITTLVRYINEHEGDILIQKKKAVRIPFRLDHHQREDNERFSRTLRTLNHQVGITNSIPETVSFLELFHAKEVKEIGIQQRWLTSESSKSLSVPIGYKGKDDIVYLNLHEKAHGPHGLLAGTTGSGKSEFLQTYILSLAVHFHPHEAAFLLIDYKGGGMAQPFRNIPHLLGTITNIEGSKNFSMRALASIKSELKKRQRLFDQYQVNHINDYTKLYKQGKAEVAMPHLFLISDEFAELKSEEPDFIRELVSAARIGRSLGVHLILATQKPGGIIDDQIWSNSRFKVALKVQDATDSKEILKNSDAANITVTGRGYLQVGNNEVYELFQSAWSGAPYLEEVYGTEDEIAIVTDTGLIPLSEVDTEDNAKKDVQTEIEAVVDEIERIQDEMGIEKLPSPWLPPLAERIPRTLFP", "B7": "gpB portal 23-533 (bacteriophage lambda, UniProt P03710); sequence looked up; chain GYHGGGSGFGGQLRSWNPPSESVDAALLPNFTRGNARADDLVRNNGYAANAIQLHQDHIVGSFFRLSHRPSWRYLGIGEEEARAFSREVEAAWKEFAEDDCCCIDVERKRTFTMMIREGVAMHAFNGELFVQATWDTSSSRLFRTQFRMVSPKRISNPNNTGDSRNCRAGVQINDSGAALGYYVSEDGYPGWMPQKWTWIPRELPGGRASFIHVFEPVEDGQTRGANVFYSVMEQMKMLDTLQNTQLQSAIVKAMYAATIESELDTQSAMDFILGANSQEQRERLTGWIGEIAAYYAAAPVRLGGAKVPHLMPGDSLNLQTAQDTDNGYSVFEQSLLRYIAAGLGVSYEQLSRNYAQMSYSTARASANESWAYFMGRRKFVASRQASQMFLCWLEEAIVRRVVTLPSKARFSFQEARSAWGNCDWIGSGRMAIDGLKEVQEAVMLIEAGLSTYEKECAKRGDDYQEIFAQQVRETMERRAAGLKPPAWAAAAFESGLRQSTEEEKSDSRAA", "B8": "panD S135A (Mycobacterium abscessus, UniProt B1MGV7); chain MMFRTMMKSKIHRATVTHADLHYVGSVTIDPDLMEAADLLEGEQVTIVDIDNGARLETYAITGTRGSGVIGINGAAAHLVHPGDLVIIIAYGVMTDEEARAFTPRVVFVDSDNKQVELGEHSDDPAYVPENFGLVAPRGLV", "B9": "pyrE (Burkholderia cenocepacia, UniProt B4E589); sequence looked up; chain MTGYDRQSISDTTAKILLEVQAVHFNAEKPFIFTSGWASPVYIDCRKLISYPRVRRALMEMAETTITRDIGFEQIDAVAGGETAGIPFAAWIADRMMVPMQYVRKKPKGFGRNAQIEGHLEEGSRVLLVEDLTTDSRSKINFVNALRTAGATVNHCFVLFHYNIFKESVSVLKDIDVDLHALATWWDVLRVAKASGYFETKTLDEVEKFLHAPAEWSAAHGGATAPKE", "B10": "Rep helicase domain 210-536 (adeno-associated virus 2, UniProt P03132); chain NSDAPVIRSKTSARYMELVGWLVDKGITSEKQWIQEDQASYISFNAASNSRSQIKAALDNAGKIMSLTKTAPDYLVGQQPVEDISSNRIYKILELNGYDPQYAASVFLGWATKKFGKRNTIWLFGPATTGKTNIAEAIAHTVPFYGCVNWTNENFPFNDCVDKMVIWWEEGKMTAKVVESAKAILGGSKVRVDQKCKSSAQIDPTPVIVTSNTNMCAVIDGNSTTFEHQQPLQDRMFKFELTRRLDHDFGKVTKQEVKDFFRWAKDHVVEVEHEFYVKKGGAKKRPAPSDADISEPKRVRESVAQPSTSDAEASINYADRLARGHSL", "B11": "ClpX 1-426 (Pseudomonas aeruginosa, UniProt Q9I2U0); chain MTDTRNGEDNGKLLYCSFCGKSQHEVRKLIAGPSVFICDECVDLCNDIIREEVQEAQAESSGHKLPAPKEIRTILDQYVIGQERAKKVLAVAVYNHYKRLNQRDKKDDIELGKSNILMIGPTGSGKTLLAETLARLLNVPFTIADATTLTEAGYVGEDVENIIQKLLQKCDYDVEKAQMGIVYIDEIDKISRKSDNPSITRDVSGEGVQQALLKLIEGTVASVPPQGGRKHPQQEFLQVDTRNILFICGGAFAGLERVIQNRSARGGIGFNAEVRSQEMGKKVGEAFKEVEPEDLVKFGLIPEFVGRLPVIATLDELDEAALMQILTEPKNALTKQYAKLFEMEGVDLEFRPDALKAVARKALERKTGARGLRSILEGILLDTMYEIPSQQDVSKVVIDESVIDGSSQPLMIYENSEKPAKAAPEA", "B12": "mpr (Mycobacterium smegmatis, UniProt Q50442); chain MTTPQPYPGMPSQPAPQGVPYPPQQPAKKKRKWPAIVGGVIALMIVGSIFNDDKKDTTPAENTATVAQAPAAAPTKEVPETTATINTPVRDGKFEFVVRSVEPGLSEVGDNPFLNQKAQGQFVIVTLSVQNIGDRPQGFSPSNQKLFDTEGRSFETDTSAQIALDNNDIAVWDNINPGNTVDVSLVYDMPVDAVPASIELHDSMFSGGVTVNLTP", "B13": "protein (Mycolicibacterium smegmatis, UniProt A0QS64); sequence looked up; chain MGVQIDVTGLSKSFGSSKIWEDVTMSIPAGEVSVLLGPSGTGKSVFLKSLIGLLRPERGSIVIDGTDILQCSAKELYEIRTLFGVLFQDGALFGSMNIYDNTAFPLREHTKKSESEIRKIVMEKLDLVGMPNDGHKFPGEISGGMRKRAGLARALVLDPEIILCDEPDSGLDPVRTAYLSQLLIDINAQIDATVLIVTHNINIARTVPDNMGMLFRKQLVMFGPREVLLTSEEPVVKQFLNGRRIGPIGMSEEKDEATAAAEQALVDAGQHDGGVEEIEGVPPQLQATPGMPERKAVARRKARVREILHTLPPAAQAAILEELDRDQPQLSAPTTQTAATAPVENYDDSPTGVIEVPKQA", "note": "Each line is one published result; not all experiments were run side by side.", "chain of UniProt Q12527 (whole entry, looked up)": "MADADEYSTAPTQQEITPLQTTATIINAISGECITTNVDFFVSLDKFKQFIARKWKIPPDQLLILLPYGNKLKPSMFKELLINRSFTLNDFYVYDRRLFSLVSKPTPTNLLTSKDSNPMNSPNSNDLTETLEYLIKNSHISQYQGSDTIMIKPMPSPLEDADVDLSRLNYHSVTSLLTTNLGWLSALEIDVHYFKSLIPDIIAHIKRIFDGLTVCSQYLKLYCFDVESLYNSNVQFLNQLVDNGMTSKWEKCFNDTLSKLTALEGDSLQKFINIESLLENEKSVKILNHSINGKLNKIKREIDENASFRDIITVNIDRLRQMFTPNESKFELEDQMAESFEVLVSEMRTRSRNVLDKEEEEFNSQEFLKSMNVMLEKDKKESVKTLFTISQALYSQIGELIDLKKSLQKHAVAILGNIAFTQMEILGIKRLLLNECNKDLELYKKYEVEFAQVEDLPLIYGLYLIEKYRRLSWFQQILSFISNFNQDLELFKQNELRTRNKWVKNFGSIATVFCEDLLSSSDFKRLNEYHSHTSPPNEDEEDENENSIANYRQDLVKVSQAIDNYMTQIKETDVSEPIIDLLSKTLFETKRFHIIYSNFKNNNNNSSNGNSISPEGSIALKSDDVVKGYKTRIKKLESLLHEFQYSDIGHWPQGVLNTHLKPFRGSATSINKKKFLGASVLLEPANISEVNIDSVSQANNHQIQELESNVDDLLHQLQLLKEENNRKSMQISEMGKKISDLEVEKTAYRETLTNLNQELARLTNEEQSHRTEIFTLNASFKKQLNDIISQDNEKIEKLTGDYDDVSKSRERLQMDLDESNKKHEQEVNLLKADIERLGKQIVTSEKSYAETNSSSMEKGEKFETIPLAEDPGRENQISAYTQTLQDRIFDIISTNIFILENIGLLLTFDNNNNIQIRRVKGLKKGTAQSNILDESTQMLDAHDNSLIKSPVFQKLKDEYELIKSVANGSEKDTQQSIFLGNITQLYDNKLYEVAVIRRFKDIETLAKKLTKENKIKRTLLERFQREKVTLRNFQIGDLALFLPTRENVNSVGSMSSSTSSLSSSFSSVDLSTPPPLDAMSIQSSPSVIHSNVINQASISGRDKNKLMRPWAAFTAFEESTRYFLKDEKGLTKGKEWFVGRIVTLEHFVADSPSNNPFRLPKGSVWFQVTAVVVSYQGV"}
{"Molecule": "B1 (panD Y126A)", "target or system": "itself", "assay": "native gel", "measurement": "subunits per oligomer", "result": 4}
{"Molecule": "B2 (protein 1-735 A444P)", "target or system": "itself", "assay": "cryo-EM", "measurement": "subunits per oligomer", "result": 2}
{"Molecule": "ATG11 (Saccharomyces cerevisiae, UniProt Q12527)", "target or system": "itself", "assay": "SEC", "measurement": "subunits per oligomer", "result": 2}
{"Molecule": "B3 (ilvA 1-422)", "target or system": "itself", "assay": "SEC", "measurement": "subunits per oligomer", "result": "> 4"}
{"Molecule": "B4 (sduA)", "target or system": "itself", "assay": "SEC-MALS", "measurement": "subunits per oligomer", "result": 4}
{"Molecule": "B5 (SthK)", "target or system": "itself", "assay": "native MS", "measurement": "subunits per oligomer", "result": 4}
{"Molecule": "B6 (YukB 1-973)", "target or system": "itself", "assay": "cryo-EM", "measurement": "subunits per oligomer", "result": "< 3"}
{"Molecule": "B7 (gpB portal 23-533)", "target or system": "itself", "assay": "cryo-EM", "measurement": "subunits per oligomer", "result": 12}
{"Molecule": "B8 (panD S135A)", "target or system": "itself", "assay": "native gel", "measurement": "subunits per oligomer", "result": 4}
{"Molecule": "B9 (pyrE)", "target or system": "itself", "assay": "SEC", "measurement": "subunits per oligomer", "result": 4}
{"Molecule": "B10 (Rep helicase domain 210-536)", "target or system": "itself", "assay": "averages, 2D class, cryo-EM", "measurement": "subunits per oligomer", "result": 7}
{"Molecule": "RMKQIEDKIEEIESKQKKIENEIARIKKLLQLTVWGIKQLQARIL (peptide)", "target or system": "itself", "assay": "crystal structure", "system": "peptide", "measurement": "subunits per oligomer", "result": 3}
{"Molecule": "B11 (ClpX 1-426)", "target or system": "itself", "assay": "cryo-EM", "measurement": "subunits per oligomer", "result": 6}
{"Molecule": "insulin human", "assay": "measured: KCNH7 mRNA", "system": "uninfected mouse, brain", "conditions": "i.p., dose not given", "how to read": "baseline: PBS", "measurement": "fold change", "result": 1.12}
{"Molecule": "B12 (mpr)", "target or system": "itself", "assay": "cross-linking", "measurement": "subunits per oligomer", "result": 2}
{"Molecule": "B13 (protein)", "target or system": "itself", "assay": "cryo-EM", "measurement": "subunits per oligomer", "result": 2}
{"note": "A few entries again:"}
{"Molecule": "B8 (panD S135A)", "target or system": "itself", "assay": "native gel", "measurement": "subunits per oligomer", "result": 4}
{"Molecule": "B1 (panD Y126A)", "target or system": "itself", "assay": "native gel", "measurement": "subunits per oligomer", "result": 4}
